Experimental data gathered from unrelated publications.
Parts stem from different laboratories: compare values within a part only. Substitutions count along the parent as printed.

Study 1 — technique: RNA Bind-n-Seq; form: RNA; sample: in vitro; tested at: 365 nM; baseline: no-protein control; direction: higher = stronger binding
Target: RNA binding protein fox-1 homolog 2, RRM domain, GST-SBP tag (RBFOX2, Homo sapiens, UniProt O43251-10, residues 100-194)
Setting: natural RNA segment, single round, ends assumed
Residues (chain): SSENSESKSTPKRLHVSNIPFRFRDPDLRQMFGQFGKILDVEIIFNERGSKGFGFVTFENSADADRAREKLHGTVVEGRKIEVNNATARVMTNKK
| Strand | RBNS enrichment (R) |
| --- | --- |
| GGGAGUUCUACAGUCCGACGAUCCUCUGCAGAGACUGCCUGGUCCUCAUUGUACUUUGGUGGCUCAACUGAAUAAAGCCUUGUGGGAAGCCUCUGUAGGCUCCCGACCCCGGGAAGAAACUGGAACCGGUCCAUGGAAUUCUCGGGUGCCAA | 0.385 |
| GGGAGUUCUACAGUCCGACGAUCACAGUAUAACCAUGUAGCCAAUUGUGGCCCACUAAAAUCUACAGAAGUUAAUGUGGGUCACCAUUUUGGUCAGAAGCAUACAUUCCUGUCAGACAACUAGUUGUCUGACAUGGAAUUCUCGGGUGCCAA | 0.354 |
| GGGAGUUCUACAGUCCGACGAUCCAAAAUAGAGCUUCCCAUGGUGUGCCCUAUCCUAGGUUUAAGAAAACACGUAUGAAGUUUAUGCUGAUGCAAAGAACUUGGGUUUUUAUGUUAAUAUAAAGUGUUGUUUUUGGAAUUCUCGGGUGCCAA | 0.552 |
| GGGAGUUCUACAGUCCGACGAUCUUGACGUCACUCUCUCUCGACCUCCAAACAGCAGGACUCUUUCUCUGGGAAACCAUCCUUCCAAAACGGAAUCUAUGUAGACAAUGGGACGUUAGGCAGAGAGCUCAGAUUGGAAUUCUCGGGUGCCAA | 0.31 |
| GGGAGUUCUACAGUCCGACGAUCUGUGUGUGCACGCGUUCGCACAUGCGUGAGUGUGUAGCAGAAGUGUGUACAGAGAGGCCCGUGCUAGCUAGCACCAAGUUGGUUGACAGAUUGUUUUGUGAUGCUUGCCCUGGAAUUCUCGGGUGCCAA | 0.696 |
| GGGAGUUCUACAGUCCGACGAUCUUUUGGCCUGUAAGACACUUUAGAGAUUCCUAACAGAGUUUACUGUUGUUUAGAAAUUUGCAAGGGCUUUUUUUCAGCAAUGCCACCAGCAGAUUAUAAUCUUGUCAACAUGGAAUUCUCGGGUGCCAA | 0.584 |
| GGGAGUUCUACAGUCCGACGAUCAGAAUCAACAGGGCACAAGAUCUAUAUAUAUUUUUAAGAGAAAAUGUAAAUAAAGAAUUUCUAAAAUAGCUUCCAGACUUGUCACUCAGUGGGAGCAUUAGAUUAACACAUGGAAUUCUCGGGUGCCAA | 0.527 |
| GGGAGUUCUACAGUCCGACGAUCAUCAGAAACUAUUAAAAUUAAGGCUAAGUGGCUAUCGGGGUAAAUAGUGCCAGAUUACUAUUGGUGGCGUUUAAGAUGAAAGCAAGUUCAAAAUUUGUCAUUUUGGGUGUUGGAAUUCUCGGGUGCCAA | 0.65 |

Study 2 — technique: competition protein-binding microarray; form: double-stranded DNA, one strand shown; sample: in vitro; tested at: 2 µM; together with: Cbf1 competitor, 0.05 µM; direction: higher = stronger binding
Target: Phosphate system positive regulatory protein PHO4, full length, GST-tagged (PHO4, Saccharomyces cerevisiae, UniProt P07270, residues 1-312)
Setting: whole 60-bp probe, lowest competitor level
Residues (chain): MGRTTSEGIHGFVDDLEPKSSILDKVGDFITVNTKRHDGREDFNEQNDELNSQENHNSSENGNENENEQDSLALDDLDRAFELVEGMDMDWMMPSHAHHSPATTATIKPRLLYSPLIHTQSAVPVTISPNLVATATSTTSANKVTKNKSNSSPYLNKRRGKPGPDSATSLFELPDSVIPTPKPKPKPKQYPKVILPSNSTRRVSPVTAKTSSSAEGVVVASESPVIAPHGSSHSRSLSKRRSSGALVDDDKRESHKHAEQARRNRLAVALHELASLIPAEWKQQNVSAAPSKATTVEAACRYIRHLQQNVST
| Strand | fluorescence intensity [a.u.] |
| --- | --- |
| TAACAGCAATTGCACCACATGCAAGTCTCATATGCAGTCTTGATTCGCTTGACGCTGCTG | 8760 |
| CACAACCTTAACAGCAACGTGAACCTCAACATGAACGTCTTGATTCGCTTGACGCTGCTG | 10700 |
| AAAGCGGTAATTTGTAGAGTGGGTGCAGATATCTATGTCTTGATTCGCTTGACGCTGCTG | 4560 |
| AAAAATTTTGAATGTCCCGTGACAAACAAAACCATTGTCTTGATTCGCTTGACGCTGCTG | 5890 |
| ACGACCAAGTTCATCTAAAATTAACAGTGTTTCTGTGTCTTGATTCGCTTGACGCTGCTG | 4050 |
| GGTTGCGACGGAATCCACGTGCAAAACAACATAGTCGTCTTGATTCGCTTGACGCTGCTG | 18500 |
| CATACCCAACCTTGAGCTGTGGGTGAAGATATTTGTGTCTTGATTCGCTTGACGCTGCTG | 3840 |
| AAAGCGGTAATTTGTGTAGTGGGTGCAGATATCTATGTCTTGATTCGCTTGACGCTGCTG | 4580 |
| CGTCCTAGTGATTGGGATGTGGGTGCCATGAGGAAGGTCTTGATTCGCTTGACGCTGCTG | 6660 |
| CCTATAACAGCAGTTGTCGTGATGGTTATAGATAAAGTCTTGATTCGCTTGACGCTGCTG | 5020 |
| AAAGCGGTAATTTGTCACGTGTTTTCACATATCTATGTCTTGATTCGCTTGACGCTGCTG | 16100 |
| GTCTTGTCTCATTGCCACGTGGGTGTCCCCACTTCAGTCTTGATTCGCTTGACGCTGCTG | 19100 |
| GGAAAAGGAAAGCCAAATGTGACGGACTCAGACTACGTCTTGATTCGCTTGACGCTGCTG | 4090 |
| GTCTTATGTGGGTTAAACGTGGGACGAGAACTATAAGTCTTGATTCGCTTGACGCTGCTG | 12300 |
| AAATTACTAAGTTGGAGTGTGGGTGACGCCGTATGAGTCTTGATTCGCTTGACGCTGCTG | 5390 |
| AAATTACTAAGTTTTCACGTGCCATACCCCGTATGAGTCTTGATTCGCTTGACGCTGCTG | 15700 |
| ACTCCACCTTTGAAAACGGTGTGAATTCGCCCTTTCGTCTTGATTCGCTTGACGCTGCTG | 3660 |
| TACTTGGTAAGTACCCACGCAGCCAATAGTGTCTCGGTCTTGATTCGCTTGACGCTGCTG | 7400 |
| AAAGCGGTAATTTTACACGTGTTTTCACATATCTATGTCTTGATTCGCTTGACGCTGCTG | 17200 |

Study 3 — technique: protein binding microarray; form: double-stranded DNA, one strand shown; sample: in vitro; tested at: not given; baseline: not given; direction: higher = stronger binding
Target: Histone acetyltransferase KAT6A, both winged helices, GST fusion (KAT6A, Homo sapiens, UniProt Q92794, residues 1-181)
Setting: 8-mer, flanks averaged, mean of 2 arrays, mostly near background
Target sequence (chain): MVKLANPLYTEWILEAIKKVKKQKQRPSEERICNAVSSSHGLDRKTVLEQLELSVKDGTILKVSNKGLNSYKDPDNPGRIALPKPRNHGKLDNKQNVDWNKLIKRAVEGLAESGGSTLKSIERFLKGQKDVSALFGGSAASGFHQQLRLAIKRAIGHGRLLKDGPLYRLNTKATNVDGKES
| Strand | E-score |
| --- | --- |
| CATTTGAC | -0.0991 |
| CATCTGCA | -0.0872 |
| AGATACCG | 0.217 |
| GCGCTCAC | 0.261 |
| AACCCAAG | -0.168 |
| CACGCCAC | -0.0159 |
| CACTTGCA | -0.266 |
| GCATAGCA | -0.0328 |
| CAAACCTG | -0.0991 |
| CGGGGGGA | -0.0851 |
| AACGGCTC | 0.198 |
| GCTAGGAA | -0.0847 |
| TACTTCGA | 0.07 |
| AACACACG | 0.0973 |
| CACACGAA | 0.0151 |
| GTAGGTGA | -0.055 |
| ACACATGG | -0.095 |
| CCGTGTGC | 0.192 |
| CACGAACC | 0.124 |
| GAACCACC | -0.086 |
| GCCCTTGA | -0.13 |
| GATTGGCC | -0.0183 |
| CCGAGACG | 0.15 |
| GTCCACTA | -0.22 |
| GTCAATTA | -0.00624 |

Study 4 — technique: DHFR PCA, deep sequencing; sample: yeast; together with: (+)-ABA 0.11 µM; baseline: wild-type fitted maximum; direction: higher = stronger binding
Target: ABI1, truncated, D143A, DHFR fusion (Arabidopsis thaliana)
Setting: methotrexate growth selection, single substitutions
Parent: PYL1, truncated, DHFR fusion (Arabidopsis thaliana); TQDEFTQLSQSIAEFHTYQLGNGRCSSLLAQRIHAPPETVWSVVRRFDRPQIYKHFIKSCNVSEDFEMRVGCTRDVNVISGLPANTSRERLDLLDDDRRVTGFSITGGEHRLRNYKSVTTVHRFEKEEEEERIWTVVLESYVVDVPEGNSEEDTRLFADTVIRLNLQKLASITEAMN
| Substitution | relative binding score [%] |
| --- | --- |
| T119W | -4.84 |
| C72N | 8.92 |
| L20K | 47.7 |
| G23Y | 1.44 |
| T160R | -1.9 |
| I52R | 12.6 |
| T39S | 7.81 |
| R99F | 73.5 |
| N85P | 0.405 |
| A30N | -3.04 |
| D153S | -0.335 |
| E64L | 7.37 |
| F15N | -0.734 |
| D3R | 19.1 |
| I133V | 61 |
| K58T | 2.38 |
| K54G | -6.68 |
| V78R | 36.3 |
| R45C | 4.49 |
| D144C | -7.84 |
| G102S | 10.2 |
| N149R | 22.4 |
| A30V | 19.7 |
| G23R | 26.2 |
| T135A | 10.4 |

Study 5 — read-out: peptide binding; form: peptide; sample: yeast competitive growth; together with: B1-Cln2 chimera; direction: direction not given
| Sequence | enrichment score |
| --- | --- |
| RKLHFEDEVT | 0.728 |
| TTTTSPRTPPPLTVQD | 1.12 |
| NFETPEAETPIRSPFK | 1.06 |
| RKLDLEGIGR | -0.729 |
| PPKPLKKLRFDIEGSD | 0.503 |
| NNIRKALSFDNRGEEH | -0.303 |
| GFGFLLFICKLTF | -0.0925 |
| DWDTVERQEEEAPSWD | 1.49 |
| GAEELEDLVHFSVSEL | 2.25 |
| LRRQLSFSED | 2.33 |
| VSRNLRSSLKSSLHTL | -2.08 |
| SCCKRKLVVGNGPEGP | -0.416 |
| PPTFLSTGEIHAFLSS | -0.0631 |
| KVKRRLDLDIDGLQKE | -0.0425 |
| PQWPCGKHKRVLIFAS | -1.29 |
| LRRKLFLDGNGSIS | -1.39 |
| ARKRLELGNLGNPQ | -0.526 |
| RRVLCFDS | -0.59 |
